Experimental data pooled from the literature.
Protocols differ between the studies behind these lines. Numbers after ± are the reported error.
NR3C1: Glucocorticoid receptor (NR3C1, Homo sapiens, UniProt P04150)

Protein sequences, listed by entry. Tags and fused reporters are not part of them.
UniProt P04150, whole entry: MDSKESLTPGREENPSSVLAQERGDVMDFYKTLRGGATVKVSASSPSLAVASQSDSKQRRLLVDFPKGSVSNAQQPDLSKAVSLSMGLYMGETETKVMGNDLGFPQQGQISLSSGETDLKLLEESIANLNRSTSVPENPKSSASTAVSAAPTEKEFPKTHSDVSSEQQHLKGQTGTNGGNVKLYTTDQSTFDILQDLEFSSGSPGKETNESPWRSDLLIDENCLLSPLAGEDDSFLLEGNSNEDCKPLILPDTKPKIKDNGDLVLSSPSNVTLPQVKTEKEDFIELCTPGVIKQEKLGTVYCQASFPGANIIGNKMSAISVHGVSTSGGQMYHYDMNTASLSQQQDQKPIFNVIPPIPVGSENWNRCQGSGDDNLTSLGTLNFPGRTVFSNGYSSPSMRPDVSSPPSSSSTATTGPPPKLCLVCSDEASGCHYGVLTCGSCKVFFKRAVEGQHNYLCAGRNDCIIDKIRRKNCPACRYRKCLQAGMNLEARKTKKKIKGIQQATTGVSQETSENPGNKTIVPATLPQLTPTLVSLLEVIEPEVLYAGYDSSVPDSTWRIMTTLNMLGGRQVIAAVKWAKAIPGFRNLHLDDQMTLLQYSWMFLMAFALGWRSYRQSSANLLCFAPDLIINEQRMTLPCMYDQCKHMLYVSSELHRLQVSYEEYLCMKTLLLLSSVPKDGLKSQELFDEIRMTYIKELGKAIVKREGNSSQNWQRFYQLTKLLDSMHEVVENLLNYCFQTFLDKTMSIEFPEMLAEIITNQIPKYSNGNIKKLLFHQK
UniProt P23470, whole entry, looked up: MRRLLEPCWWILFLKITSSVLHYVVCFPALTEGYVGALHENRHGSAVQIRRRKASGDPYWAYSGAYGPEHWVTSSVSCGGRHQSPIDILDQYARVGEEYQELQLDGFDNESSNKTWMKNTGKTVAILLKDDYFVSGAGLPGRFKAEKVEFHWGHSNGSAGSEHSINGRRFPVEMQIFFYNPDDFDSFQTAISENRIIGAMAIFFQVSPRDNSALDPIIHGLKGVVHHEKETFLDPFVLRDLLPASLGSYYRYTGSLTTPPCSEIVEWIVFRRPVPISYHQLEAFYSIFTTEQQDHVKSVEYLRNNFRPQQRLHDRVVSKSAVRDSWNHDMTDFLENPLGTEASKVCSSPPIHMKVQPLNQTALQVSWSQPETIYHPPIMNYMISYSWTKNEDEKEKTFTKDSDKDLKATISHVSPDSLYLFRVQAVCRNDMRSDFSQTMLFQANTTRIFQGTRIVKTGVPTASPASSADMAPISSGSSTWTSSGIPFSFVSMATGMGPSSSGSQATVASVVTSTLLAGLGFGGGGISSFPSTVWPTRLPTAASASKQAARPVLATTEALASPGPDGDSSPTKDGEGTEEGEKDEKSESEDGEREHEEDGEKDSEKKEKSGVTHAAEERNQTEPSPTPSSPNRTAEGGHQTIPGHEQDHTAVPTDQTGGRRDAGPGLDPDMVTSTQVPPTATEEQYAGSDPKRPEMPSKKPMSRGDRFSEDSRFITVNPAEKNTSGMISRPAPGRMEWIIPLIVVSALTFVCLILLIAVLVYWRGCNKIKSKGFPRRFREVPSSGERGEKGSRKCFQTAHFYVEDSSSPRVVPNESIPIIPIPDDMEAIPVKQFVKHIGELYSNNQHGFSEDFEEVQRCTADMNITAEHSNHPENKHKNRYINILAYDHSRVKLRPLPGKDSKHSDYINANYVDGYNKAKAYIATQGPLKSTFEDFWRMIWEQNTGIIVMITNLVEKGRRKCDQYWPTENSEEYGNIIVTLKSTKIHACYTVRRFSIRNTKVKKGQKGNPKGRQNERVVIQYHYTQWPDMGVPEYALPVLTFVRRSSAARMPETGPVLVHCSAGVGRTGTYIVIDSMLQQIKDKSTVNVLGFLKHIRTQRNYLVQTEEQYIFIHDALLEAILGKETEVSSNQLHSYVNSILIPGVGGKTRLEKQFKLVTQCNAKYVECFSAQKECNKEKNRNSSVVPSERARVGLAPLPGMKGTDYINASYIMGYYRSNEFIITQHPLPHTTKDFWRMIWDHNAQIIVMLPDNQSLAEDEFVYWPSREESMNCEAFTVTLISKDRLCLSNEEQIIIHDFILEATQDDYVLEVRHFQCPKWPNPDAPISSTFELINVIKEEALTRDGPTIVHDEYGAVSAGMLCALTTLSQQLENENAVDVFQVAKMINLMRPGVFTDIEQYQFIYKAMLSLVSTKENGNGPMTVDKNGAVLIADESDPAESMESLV

Structure (SMILES) | target or system | assay | system | conditions | how to read | quantity | result
Cc1ccc([C@H](CC(=O)O)NC(=O)Nc2c(O)c(C)cn(Cc3ccccc3Cl)c2=O)cc1 | – | refers to: hCD45+ hCD19+ | LAX7R xenograft, NSG mouse, peripheral blood | 60 mg/kg, 36 h, 0.5% leukemic cells at start | reference: PBS | B-ALL cells | decreased
COc1ccc(N2C(=O)N(c3c(C)cccc3Cl)Cc3cnc(Nc4ccc(N5CCN(C)CC5)cc4OC)nc32)nc1 | – | IL-10 production | bone marrow-derived dendritic cells, mouse | with: zymosan A | – | EC50 | 0.07 ± 0.04 µM
O=C(Nc1cccnn1)N1CC(Oc2ccc(-c3ccccc3F)cn2)C1 | – | refers to: plasma endocannabinoid trough levels | human, plasma | oral, repeated daily dosing, sustained to day 8 | – | time to steady state | 2 to 3 days
Cc1c(O)cc2c(c1C)O[C@](C)(CCCC(C)C)CC2 | – | refers to: Akt Ser473, MDM2, IKKα | athymic nude mouse, LNCaP-abl xenograft, tumour | intraperitoneal, 50 mg/kg daily, 21 days | – | phosphorylation | decreased
COc1ccc(OC[C@H]2c3cccn3CC(=O)N2Cc2cccc(F)c2)cc1 | – | – | CA1 stratum radiatum interneurons, mouse wild type P11-15, hippocampal slice | 10 µM | – | NMDAR EPSC peak amplitude | -93 ± 58 pA
COc1cc(CC(=O)NCC(NC(=O)C(CCCNC(=O)c2cccc(I)c2)NC(=O)C(Cc2ccc(C(F)(F)P(=O)(O)O)cc2)NC(=O)c2ccc(C)c(Br)c2)C(N)=O)ccc1O (centres unmarked) | Receptor-type tyrosine-protein phosphatase gamma (Homo sapiens, UniProt P23470) | enzyme activity | – | 10 µM | – | inhibition | no inhibition
Nc1c(C(=O)Nc2c(F)cc(F)cc2Br)sc2nc3c(cc12)CCC3 | – | – | nude mice, H1299 xenograft, tumour tissue | 10 mg/kg/day | – | copper accumulation | ~20%
O=C1C=C(NCCc2cc(Br)c(O)c(Br)c2)C(=O)c2ncccc21 | – | – | SCID/Beige mice, MNNG-HOS lung metastasis, lung | dose not given | – | metastatic foci number | no effect
C[C@@H]1CC[C@H]2[C@H](C)C3[C@H](C[C@H]4[C@@H]5CC=C6C[C@@H](O)CC[C@@]6(C)[C@@H]5C[C@@H](O)[C@]34C)N2C1 (some centres unmarked) | NR3C1 | nuclear translocation, agonist, enzyme fragment complementation | – | – | – | EC50 | > 9 µM
O=C(/C=C/c1nc2ccccc2[nH]1)c1c(-c2ccccc2)c2cc(Cl)ccc2[nH]c1=O | – | – | nude mouse, SK-MEL-5 xenograft | oral gavage, dose not given | – | tumour growth | no effect
C[C@H]1CCCN1Cc1cc2cnc(NC(=O)c3ccc4c(cnn4C)c3)cc2[nH]1 | – | – | mouse, MLL-ENL sample B xenograft, bone marrow and spleen | oral, 200 mg/kg once daily, 4 weeks | reference: vehicle | leukaemia burden | decreased
CCCCCCCCCCCCCC=C[C@@H](O)[C@H](CO[C@@H]1O[C@H](CO)[C@@H](O[C@@H]2O[C@H](CO)[C@H](O)[C@H](O[C@]3(C(=O)O)C[C@H](O)[C@@H](NC(C)=O)[C@H]([C@H](O)[C@@H](CO)O[C@]4(C(=O)O)C[C@H](O)[C@@H](NC(C)=O)[C@H]([C@H](O)[C@H](O)CO)O4)O3)[C@H]2O)[C@H](O)[C@H]1O)NC(=O)CCCCCCCCCCCCCCCCC | – | – | C57BL/6 mouse, serum | intravenous, dose not given, with: α-GalCer 1 µg | – | serum IL-12 level | inhibited
COc1cccc(Cc2c(C)c(C)nn(CC(=O)Nc3ccc(Br)cc3)c2=O)c1 | – | paw pressure test | rat, CFA-induced arthritis | oral, 30 mg/kg, day 14, 30 to 60 min | – | pain threshold | 53.5 ± 2.3 g
COC(=O)CC[C@@H](C)C1CC[C@H]2[C@H]3CC[C@H]4C[C@@H]5CC[C@@]4(C)[C@@]3(O5)[C@@H](Br)[C@@H](Br)[C@@]12C (some centres unmarked) | NR3C1 | nuclear translocation, agonist, enzyme fragment complementation | – | – | – | EC50 | > 9 µM

A few entries again:
Structure (SMILES) | target or system | assay | system | conditions | how to read | quantity | result
C[C@@H]1CC[C@H]2[C@H](C)C3[C@H](C[C@H]4[C@@H]5CC=C6C[C@@H](O)CC[C@@]6(C)[C@@H]5C[C@@H](O)[C@]34C)N2C1 (some centres unmarked) | NR3C1 | nuclear translocation, agonist, enzyme fragment complementation | – | – | – | EC50 | > 9 µM
